Measured values of several laboratories.
Every numbered part comes from another study and shows a few of its results, in no order. Substitutions count along the parent as printed.

Series 1
Target: Histone acetyltransferase KAT6A, winged helix 2, GST fusion (KAT6A, Homo sapiens, UniProt Q92794, residues 85-181)
Method: protein binding microarray
Molecule type: double-stranded DNA, one strand shown
Sample: in vitro
Concentration: not given
Notes: 8-mer, flanks averaged, mean of 2 arrays, mostly near background
Baseline: not given
Direction: higher = stronger binding
Residues (chain): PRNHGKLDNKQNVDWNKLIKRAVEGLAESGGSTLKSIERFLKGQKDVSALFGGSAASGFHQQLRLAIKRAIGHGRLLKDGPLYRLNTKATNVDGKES
Sequence	E-score
ATACAGGC	-0.151
GTCTCGCA	0.141
CTGAGAGA	-0.0977
AAAGTGGT	-0.0968
ATCACAAA	0.0668
GTAAACAC	-0.0846
TAATTAAA	0.0674
CCCTCCAG	0.0872
CTCTTCGA	0.0541
TCTCAAAA	0.043
TCCGTACA	-0.0356
GCATTTTA	0.156
CTGCAGCA	0.015
CGGCAGTC	0.133
AAATTGCG	0.0185
AGTGACGG	0.0795

Series 2
Target: CCNE2, cyclin fold, Cln2 fusion (human)
Method: yeast growth competition, sequencing
Sample: yeast
Notes: strong parent motif
Baseline: not given
Direction: higher = stronger binding
Starting sequence: CDKN1B docking peptide (human); PSACRNLFGPVDH; partner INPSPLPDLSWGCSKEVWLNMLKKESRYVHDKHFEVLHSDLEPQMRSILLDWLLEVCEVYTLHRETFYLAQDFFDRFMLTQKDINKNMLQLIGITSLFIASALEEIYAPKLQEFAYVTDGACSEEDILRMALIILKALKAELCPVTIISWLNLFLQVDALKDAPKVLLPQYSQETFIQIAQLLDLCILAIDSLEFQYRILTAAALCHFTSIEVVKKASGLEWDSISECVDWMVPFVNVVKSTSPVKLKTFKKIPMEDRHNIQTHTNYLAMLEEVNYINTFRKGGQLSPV
Variant	normalised enrichment score
P1F	1.47
C4W	0.945
L7F	0.841
C4F	0.815
A3Y	2.24
G9H	0.73
C4A	0.717
L7K	-0.0446
L7R	0.517
P10T	1.85
D12E	1.04
S2A	1.1
P1G	1.34
D12I	0.808
P1M	1.33
D12N	1.75
N6A	1.04
P1Y	1.64
A3V	3.96
G9Y	1.22
A3M	0.881
S2K	1.5
F8R	0.636
D12C	1.57
C4D	0.253

Series 3
Target: PABPC1L2, full length, GST fusion (mouse, UniProt A0ABA7IW68)
Method: RNAcompete
Molecule type: RNA
Sample: in vitro
Concentration: 20 nM
Notes: 7-mer, probes averaged, single round
Baseline: mean of 7-mers
Direction: higher = stronger binding
Construct (chain): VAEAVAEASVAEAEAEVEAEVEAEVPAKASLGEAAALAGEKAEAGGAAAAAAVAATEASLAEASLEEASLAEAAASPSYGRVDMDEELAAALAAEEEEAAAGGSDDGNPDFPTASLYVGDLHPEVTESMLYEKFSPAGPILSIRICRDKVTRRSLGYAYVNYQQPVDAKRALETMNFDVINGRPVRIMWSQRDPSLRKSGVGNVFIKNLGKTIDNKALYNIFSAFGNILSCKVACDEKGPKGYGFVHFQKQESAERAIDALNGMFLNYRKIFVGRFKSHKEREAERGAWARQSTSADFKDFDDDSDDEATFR
Sequence	7-mer Z-score
AUUGCCG	-0.164
CUACCUU	-0.325
UAAGUUC	-0.327
CAGCUUU	-0.235
GUCUUGC	-0.347
AGUUCAA	-0.188
GUACCCU	-0.356
CGAACCA	-0.119
AGCUUGU	-0.162
CGACAAG	0.155
UGAGACU	-0.164
UUCGCAA	-0.173
CUCGGUU	-0.354
ACUGGUC	-0.128
ACUUAUU	-0.199
UCUCCAU	-0.4
CCAGGCA	0.113
UUCAACG	-0.124

Series 4
Target: Sal-like protein 4, full length isoform B (SALL4, Homo sapiens, UniProt Q9UJQ4-2, residues 1-616)
Method: universal PBM
Molecule type: double-stranded DNA, one strand shown
Sample: in vitro
Concentration: not given
Notes: 8-mer, flanks averaged, mean of replicates
Direction: higher = stronger binding
Sequence	E-score
CCCTTCGC	-0.207
ATCTCGAA	0.0358
ACGCGATC	-0.0737
CTAAAGTA	0.112
AAGCCCTC	-0.179
AAGCTACA	0.108
GTCATCGA	0.0622
AGTCCGAG	-0.255
AGGCGGTG	-0.311
CGCAGTCC	-0.278
GACAAATA	0.243
CCCCCCGC	-0.184
AAGGCAGG	0.0488
GGTGAGTA	-0.013
CGTTCCTC	-0.218
AAATGCCC	-0.235
AACTTTTG	0.152
ACTCCTCG	0.0436
GATTAAGC	0.0781
ACCCGGAC	-0.371
AGTGCTGA	-0.0949
AAAGTGTA	0.241
CATTTCAG	0.0284
ACCACAGC	-0.25
ACCCCTCT	-0.308

Series 5
Target: MAFG, bZIP domain (human)
Method: DHFR protein complementation
Sample: yeast
Notes: single substitutions, most at no-binding floor
Baseline: wild-type JUN-FOS pair
Direction: higher = stronger binding
Starting sequence: JUN, bZIP domain (human); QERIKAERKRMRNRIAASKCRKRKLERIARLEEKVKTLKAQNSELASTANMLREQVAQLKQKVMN; partner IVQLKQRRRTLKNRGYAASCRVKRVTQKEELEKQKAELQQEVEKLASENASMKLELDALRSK
Variant	binding fitness [natural log]
T37P	-1.47
Q55V	-1.5
L45E	-1.46
L52S	-1.43
L38G	-1.5
K36I	-1.38
E54C	-1.54
K36S	-1.47
T37D	-1.46
L45R	-1.37
K39M	-1.44
V35G	-1.47
N42I	-1.39
E33R	-1.45
E33N	-1.57
I28C	-1.56
E54T	-1.48
M51Q	-1.52

Series 6
Target: TAR DNA-binding protein 43, full length, His tag (TARDBP, Homo sapiens, UniProt Q13148, residues 1-414)
Method: RNA Bind-n-Seq
Molecule type: RNA
Sample: in vitro
Concentration: 20 nM
Notes: 6-mer, flanks averaged, single round
With: 150 mM KCl
Baseline: input library
Direction: higher = stronger binding
Sequence	6-mer enrichment (R)
GAUGCC	0.834
CGUCGU	0.758
CGCACG	0.956
GGAGGC	3.61
AAUUAU	0.719
GAUGAC	0.848
UGCCAA	0.692
GUACUG	0.87
GGAAGC	1.54
UUUGAU	0.635
UUGCAU	0.651
CCGUUC	0.581
AGUAGG	1.5
GCAACG	1.12
UCCGAA	0.628

Mixed results
Substance	target	assay	system	setting	how to read	measurement	value
PhoQ, residues 284 288 289 292 302 303 WVSSAF	PhoP, residues 12 14 15 18 19 AQALL (Escherichia coli, UniProt P23836)	Sort-seq, refers to: YFP reporter	E. coli	PhoQ-PhoP variant library, with: 10 µM Mg2+	baseline: high Mg2+ state, higher = stronger signaling	fold induction	14
